Experimental data of several laboratories.
Numbered parts are unrelated; each lists some results of a single study.

Study 1 — technique: RNAcompete; form: RNA; medium: in vitro; concentration: 20 nM; notes: 7-mer, probes averaged, single round; relative to: mean of 7-mers; direction: higher = stronger binding
Target: PABPC1L2, full length, GST fusion (mouse, UniProt A0ABA7IW68)
Construct (chain): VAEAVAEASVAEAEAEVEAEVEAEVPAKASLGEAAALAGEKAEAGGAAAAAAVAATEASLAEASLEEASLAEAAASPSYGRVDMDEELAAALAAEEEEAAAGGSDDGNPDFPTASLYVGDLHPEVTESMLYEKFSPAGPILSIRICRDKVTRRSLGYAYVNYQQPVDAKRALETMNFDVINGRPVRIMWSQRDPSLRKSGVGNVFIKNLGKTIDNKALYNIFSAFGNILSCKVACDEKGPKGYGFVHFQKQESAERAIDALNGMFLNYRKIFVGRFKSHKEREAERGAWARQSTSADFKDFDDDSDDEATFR
The 7-mer Z-score of `CGCGGAA` is reported as -0.0047.
With `UAUGCCC` the 7-mer Z-score was -0.329.
`UAUACUC` has a 7-mer Z-score of -0.347.
For `AGCGAAG`, the 7-mer Z-score was 0.106.

Study 2 — technique: protein-binding microarray; form: double-stranded DNA, one strand shown; medium: in vitro; concentration: 0.8 µM; notes: whole 60-bp probe, no competitor; direction: higher = stronger binding
Target: Centromere-binding protein 1, full length, N-terminal tag (CBF1, Saccharomyces cerevisiae, UniProt P17106, residues 1-351)
Sequence of UniProt P17106 (whole entry, looked up): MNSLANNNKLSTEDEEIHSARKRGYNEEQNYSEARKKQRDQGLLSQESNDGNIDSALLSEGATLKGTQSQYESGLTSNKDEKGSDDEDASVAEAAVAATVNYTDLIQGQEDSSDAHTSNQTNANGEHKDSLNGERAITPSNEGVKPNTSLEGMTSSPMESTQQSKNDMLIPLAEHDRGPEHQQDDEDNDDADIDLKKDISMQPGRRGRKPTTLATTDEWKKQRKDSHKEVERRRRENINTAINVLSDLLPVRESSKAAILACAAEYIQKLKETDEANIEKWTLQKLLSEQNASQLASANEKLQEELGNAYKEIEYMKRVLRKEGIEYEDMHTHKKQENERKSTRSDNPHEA
`CTACGAATGTTGAATCACGCCAGAATCACCAAATTCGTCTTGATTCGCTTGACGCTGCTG` has a fluorescence intensity of 564 a.u.
With `GAAAGAGAGACAAAAGACGTGCTTCCGGAATTTTAGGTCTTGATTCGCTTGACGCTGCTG` the fluorescence intensity was 514 a.u.
With `GAACTTTATATGGATCGCGTGATGTTTTAAGCCTAGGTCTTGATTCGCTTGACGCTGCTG` the fluorescence intensity was 2080 a.u.
`GAAGTCAACAAGCATCACCAGAGACGCCTATTATAGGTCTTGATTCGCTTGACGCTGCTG` gave a fluorescence intensity of 515 a.u.
`CTACATCCCAAAAGTTAGGTGATGGAATCAATATTCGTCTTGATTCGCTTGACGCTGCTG` has a fluorescence intensity of 496 a.u.
The fluorescence intensity of `GAAACAAGAGGCCTTCACACCATTTATTTCAGCTAGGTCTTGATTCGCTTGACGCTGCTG` is reported as 484 a.u.

Study 3 — technique: protein binding microarray; form: double-stranded DNA, one strand shown; medium: in vitro; concentration: not given; relative to: not given; direction: higher = stronger binding
Target: Histone acetyltransferase KAT6A, both winged helices, GST fusion (KAT6A, Homo sapiens, UniProt Q92794, residues 1-181)
Notes: 8-mer, flanks averaged, mean of 2 arrays, mostly near background
Target sequence (chain): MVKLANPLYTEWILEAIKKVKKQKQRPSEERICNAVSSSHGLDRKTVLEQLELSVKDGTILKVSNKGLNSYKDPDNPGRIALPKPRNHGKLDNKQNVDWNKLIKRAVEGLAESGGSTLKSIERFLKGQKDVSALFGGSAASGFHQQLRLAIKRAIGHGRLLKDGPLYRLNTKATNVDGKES
The E-score of `GAGGCCCC` is reported as -0.088.
`GACTCGGA` has an E-score of 0.0524.
`AAGTAGAC` gave an E-score of -0.176.
The E-score of `AGGCCTTC` is reported as -0.169.

Mixed results
The fold induction of `PhoQ, residues 284 288 289 292 302 303 NSMLDC` is reported as 22.8 (PhoP, residues 12 14 15 18 19 TQAML (Escherichia coli, UniProt P23836); Sort-seq, item: YFP reporter; E. coli; PhoQ-PhoP variant library, added: 10 µM Mg2+; relative to: high Mg2+ state, higher = stronger signaling).
